Measured values pooled from the literature.
Several values in a cell are separate wells, animals, samples, runs or records. ± marks the error that the study gave.
Sequence of UniProt P05177 (whole entry, looked up): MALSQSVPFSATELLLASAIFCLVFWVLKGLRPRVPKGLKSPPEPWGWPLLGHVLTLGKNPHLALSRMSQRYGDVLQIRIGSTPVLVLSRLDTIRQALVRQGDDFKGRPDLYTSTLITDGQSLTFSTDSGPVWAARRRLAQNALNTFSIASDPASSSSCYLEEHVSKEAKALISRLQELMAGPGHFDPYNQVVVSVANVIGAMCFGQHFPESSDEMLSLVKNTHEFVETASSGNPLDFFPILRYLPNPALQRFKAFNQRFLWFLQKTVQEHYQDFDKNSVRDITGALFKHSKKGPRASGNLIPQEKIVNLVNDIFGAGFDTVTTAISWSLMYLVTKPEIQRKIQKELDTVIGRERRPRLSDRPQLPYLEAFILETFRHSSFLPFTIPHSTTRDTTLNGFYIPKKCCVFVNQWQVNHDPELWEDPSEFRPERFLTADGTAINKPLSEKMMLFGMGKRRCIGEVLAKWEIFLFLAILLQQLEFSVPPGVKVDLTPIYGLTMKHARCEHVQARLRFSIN
Sequence of UniProt P13569 (whole entry, looked up): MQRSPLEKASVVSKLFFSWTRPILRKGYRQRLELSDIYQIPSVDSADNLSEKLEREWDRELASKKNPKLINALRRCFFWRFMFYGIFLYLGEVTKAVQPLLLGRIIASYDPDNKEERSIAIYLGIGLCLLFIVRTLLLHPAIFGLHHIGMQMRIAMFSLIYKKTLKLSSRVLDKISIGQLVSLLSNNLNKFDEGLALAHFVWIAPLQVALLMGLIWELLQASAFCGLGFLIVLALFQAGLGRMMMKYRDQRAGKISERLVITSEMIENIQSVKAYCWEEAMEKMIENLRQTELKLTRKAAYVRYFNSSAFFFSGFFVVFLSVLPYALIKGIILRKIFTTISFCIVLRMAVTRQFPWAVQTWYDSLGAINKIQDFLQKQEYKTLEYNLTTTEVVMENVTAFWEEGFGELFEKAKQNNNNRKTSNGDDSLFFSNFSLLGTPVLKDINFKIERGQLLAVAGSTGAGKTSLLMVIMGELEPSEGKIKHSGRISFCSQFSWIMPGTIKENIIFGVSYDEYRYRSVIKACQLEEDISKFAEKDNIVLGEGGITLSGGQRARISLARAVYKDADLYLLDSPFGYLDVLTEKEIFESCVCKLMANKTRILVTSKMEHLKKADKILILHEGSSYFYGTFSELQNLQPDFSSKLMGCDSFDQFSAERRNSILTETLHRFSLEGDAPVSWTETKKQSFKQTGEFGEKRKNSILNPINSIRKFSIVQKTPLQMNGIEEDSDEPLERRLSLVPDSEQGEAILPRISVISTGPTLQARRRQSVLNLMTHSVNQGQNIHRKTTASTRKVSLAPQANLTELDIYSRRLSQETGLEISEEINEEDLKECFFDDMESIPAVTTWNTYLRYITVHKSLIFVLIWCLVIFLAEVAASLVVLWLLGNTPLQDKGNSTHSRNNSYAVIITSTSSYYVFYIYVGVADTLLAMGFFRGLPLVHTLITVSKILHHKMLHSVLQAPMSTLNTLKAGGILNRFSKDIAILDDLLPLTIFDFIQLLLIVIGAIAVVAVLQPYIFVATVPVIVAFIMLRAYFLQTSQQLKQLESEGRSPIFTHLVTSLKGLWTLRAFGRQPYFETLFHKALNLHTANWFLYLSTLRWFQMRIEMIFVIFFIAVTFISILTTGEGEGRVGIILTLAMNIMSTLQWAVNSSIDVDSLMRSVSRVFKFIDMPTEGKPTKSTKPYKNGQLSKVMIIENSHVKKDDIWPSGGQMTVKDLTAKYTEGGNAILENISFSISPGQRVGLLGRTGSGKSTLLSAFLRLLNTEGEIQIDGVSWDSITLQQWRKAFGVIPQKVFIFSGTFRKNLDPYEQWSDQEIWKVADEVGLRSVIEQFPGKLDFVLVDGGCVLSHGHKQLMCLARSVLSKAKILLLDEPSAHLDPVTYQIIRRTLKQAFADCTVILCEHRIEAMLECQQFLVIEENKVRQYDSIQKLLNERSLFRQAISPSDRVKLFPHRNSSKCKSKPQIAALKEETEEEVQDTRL

CCCCCCCC/C=C\CCCCCCCCOP(O)(O)=S.N
dose of crypt protection plateau (mouse, proximal jejunum crypts; subcutaneous, added: 10.6 Gy total-body irradiation): > 2 mg/kg

CC(C)C[C@H](NC(=O)[C@H](Cc1ccccc1)NC(=O)CNC(=O)CNC(=O)[C@@H](N)Cc1ccc(O)cc1)C(=O)N[C@@H](CCCNC(=N)N)C(=O)N[C@@H](CCCNC(=N)N)C(=O)N[C@@H](CCC(N)=O)C(=O)N[C@@H](Cc1ccccc1)C(=O)O
EC50 (C57BL/6 mouse striatal membranes): < 1000 nM and 640 nM

Cc1ccc(/C=C/C(=O)O)cc1-c1cc2c(cc1C)C(C)(C)CCC2(C)C
log2 fold change (RNA sequencing, item: Cga mRNA; rat, brain; dose not given, 24 h, single dose; reference: vehicle): 3.2

COc1cc2c(cc1OC)C(=O)C(=Cc1ccc(N3CC[N+](C)(C)CC3)cc1)C2
NF-kB protein level (western blot; Wistar rat, amyloid beta-induced Alzheimer model, hippocampus; oral, dose not given, 21 days): decreased

N=C(N)NCCC[C@@H]1NC(=O)[C@H](CCCCNC(=O)CC[C@H](NC(=O)CCOCCOCCOCCOCCNC(=O)CC[C@H](NC(=O)CN2CCN(CC(=O)O)CCN(CC(=O)O)CCN(CC(=O)O)CC2)C(=O)NCCOCCOCCOCCOCCC(=O)N[C@@H](CCC(=O)NCCCC[C@@H]2NC(=O)[C@@H](Cc3ccccc3)NC(=O)[C@H](CC(=O)O)NC(=O)CNC(=O)[C@H](CCCNC(=N)N)NC2=O)C(=O)NCCCC[C@@H]2NC(=O)[C@@H](Cc3ccccc3)NC(=O)[C@H](CC(=O)O)NC(=O)CNC(=O)[C@H](CCCNC(=N)N)NC2=O)C(=O)NCCCC[C@@H]2NC(=O)[C@@H](Cc3ccccc3)NC(=O)[C@H](CC(=O)O)NC(=O)CNC(=O)[C@H](CCCNC(=N)N)NC2=O)NC(=O)[C@@H](Cc2ccccc2)NC(=O)[C@H](CC(=O)O)NC(=O)CNC1=O [indium-111 labelled]
tissue uptake (female athymic nude mice, blood; intravenous, 3 µCi, 0.5 h, U-87 MG glioma xenograft): 1.12 ± 0.08 %ID/g

CN(C)CC1CCCCC1(O)c1cccc(O)c1 (stereo not shown)
efflux ratio (Caco-2; 1 µM, 3 h, pH 6.8): 1.9

O=C(O)CCCC(=O)O
ABTS radical scavenging (1000 µg/mL): 81.2 ± 1.31%

C[C@H]1COc2c(N3CCN(C)CC3)c(F)cc3c(=O)c(C(=O)N[C@@H](CCCNC(=N)N)C(=O)N[C@@H](Cc4ccc(-c5ccccc5)cc4)C(=O)N[C@@H](CCCNC(=N)N)C(=O)N[C@@H](Cc4ccc(-c5ccccc5)cc4)C(=O)N[C@@H](CCCNC(=N)N)C(N)=O)cn1c23
hemolysis (human erythrocytes; 12.5 µM, 1 h, 37 °C; reference: Triton X-100): 0%

CN[C@](C)(C[18F])C(=O)O
tracer uptake (MDA-MB-468 tumour model; host not given, tumour; 15 min, tumour-bearing): 3.4 %ID/g

O=C1C(P(=O)(O)O)CCCN1O (stereo not shown)
blood glucose level (cynomolgus monkey; dose not given, fasting state): decreased

O=P(O)(O)Oc1c2c(c(OP(=O)(O)O)c3c1C1CC3c3cc4c(cc31)C1CC4c3ccccc31)C1CC2c2cc3c(cc21)C1CC3c2ccccc21
EC50 (liposome dye leakage; liposomes 200 nm; 30 min, added: carboxyfluorescein 50 mM): 79200 nM

somatostatin
GFAP-positive glial activation (Sprague-Dawley rat, streptozotocin-induced diabetes, retina; eye drops, 10 mg/mL, score 4): 0%

CSCCNC(=O)CCC(C)C1CCC2C3C(O)CC4CC(O)CCC4(C)C3CCC12C (stereo not shown)
mRNA level (item: Cyp8b1; SPF mice, liver; oral gavage, 50 mg/kg daily; reference: corn oil): increased

COC[C@@H](NC(C)=O)C(=O)NCc1ccc(OCc2ccc(Cl)cc2)cc1
ED50 (6 Hz seizures; mouse; intraperitoneal): 7.6 mg/kg

CCN(CCCCOc1ccc(CCC(=O)N2CCC(Cc3ccccc3)CC2)cc1OC)Cc1ccccc1
step-down latency (step-down passive avoidance; scopolamine-induced amnesic mice; 2.8 mg/kg): 135 s

COc1ccc([N+](=O)[O-])cc1NC(=O)CCC(=O)[O][Zn][O]C(=O)CCC(=O)Nc1cc([N+](=O)[O-])ccc1OC.c1ccncc1
ABTS radical scavenging (ABTS; 15.62 µg/mL): 63.21 ± 0.16%

CC(C)C[C@H](NC(=O)[C@H](Cc1ccccc1)NC(=O)[C@@H](NC(=O)[C@H](Cc1c[nH]cn1)NC(=O)[C@H](CC(=O)O)NC(=O)[C@@H](NC(=O)[C@H](Cc1ccc(C(=O)c2ccccc2)cc1)NC(=O)[C@@H](NC(=O)[C@@H](N)Cc1ccc(O)cc1)[C@@H](C)O)C(C)C)C(C)C)C(=O)N[C@@H](CCCNC(=N)N)C(=O)N[C@@H](Cc1ccccc1)C(N)=O
EC50 (heart contraction rate decrease; Drosophila melanogaster white prepupae, pupal heart): 0.01 nM

CC[C@H](C)[C@H](NC(=O)[C@H](CCCNC(=N)N)NC(=O)[C@H](CCC(N)=O)NC(=O)[C@H](CC(=O)O)NC(=O)[C@H](CC(C)C)NC(=O)[C@H](CC(C)C)NC(=O)[C@H](CC(N)=O)NC(=O)[C@H](Cc1ccccc1)NC(=O)[C@H](CC(=O)O)NC(=O)[C@@H](NC(=O)[C@@H](NC(=O)[C@H](CC(N)=O)NC(=O)CNC(=O)[C@H](CO)NC(C)=O)C(C)C)[C@@H](C)CC)C(=O)N[C@H](C(=O)N[C@@H](Cc1c[nH]c2ccccc12)C(=O)N[C@@H](CCC(N)=O)C(=O)N[C@@H](CC(N)=O)C(=O)N[C@@H](Cc1c[nH]c2ccccc12)C(=O)N[C@@H](Cc1ccc(O)cc1)C(=O)N[C@@H](C)C(N)=O)[C@@H](C)CC
antigen-experienced T cells (item: HA-02 tetramer; tetramer+ CD4 T cells, PBMC, healthy adults, HLA-DRB1*0101; dose not given, CD62L−CD45RA+/− or CD62L+CD45RA−): 53.8%

CCCCCCCCC(=O)NCc1ccc(O)c(OC)c1
IC50 (mouse mAb 1-F12; antibody binding, indirect competitive ELISA; added: coating antigen 2-OVA): > 4 µg/mL

CC(C)(C)c1cc(C(C)(C)C)c(-n2cc(-c3cnc4ccccc4c3O)nn2)cc1O
EC50 (CFTR (Homo sapiens, UniProt P13569); short-circuit current, potentiator; CFBE41o- wild type; added: forskolin 100 nM): inactive

CCN(Cc1ccccc1)C(=O)CCc1nc(CN2CCN(C(=O)Cc3ccc(OC)c(OC)c3)CC2)no1
onset day (thermal withdrawal threshold, Hargreaves test; mouse CCI model; 5 mg/kg, dosing from day 11): 13 days

CC1=C(C(=O)Nc2ccc(F)cc2)C(c2ccccc2Cl)NC(=S)N1 (stereo not shown)
mean arterial pressure (carotid artery cannulation; male Wistar rats, anaesthetised; 0.3 mL, 3 h): 22.9 ± 0.92 mm Hg

CCCCCc1cc(O)c2c(c1)OC(C)(C)C1CCC(C)=CC21 (single isomer, unassigned; (-))
IC50 (Cytochrome P450 1A2 (CYP1A2, Homo sapiens, UniProt P05177); enzyme activity, inhibitor; human, liver microsomes; pH 7.4): 5.2 µM

CCCCCCOP(=O)(O)Oc1c2c(c(OP(=O)(O)OCCCCCC)c3c1C1CC3c3cc4c(cc31)C1CC4c3ccccc31)C1CC2c2cc3c(cc21)C1CC3c2ccccc21
EC50 (liposome dye leakage; liposomes 200 nm; 30 min, added: carboxyfluorescein 50 mM): 6500 nM

CC(C)C[C@H](NC(=O)[C@H](Cc1ccccc1)NC(=O)CNC(=O)CNC(=O)[C@@H](N)Cc1ccc(OC(C(=O)O)c2ccccc2[N+](=O)[O-])cc1)C(=O)O (stereo partly shown)
response stability (K+ current, agonist, photo-uncaging; rat locus coeruleus neurons; concentration not given, 15 repeated uncaging stimuli): stable

CC[C@H](C)[C@H](NC(=O)[C@@H](NC(=O)[C@H](CC(=O)O)NC(C)=O)[C@@H](C)O)C(=O)N[C@@H](CCCNC(=N)N)C(=O)N[C@@H](CC(C)C)C(=O)N[C@@H](CC(C)C)C(=O)N[C@@H](Cc1ccccc1)C(=O)N[C@@H](CCC(N)=O)C(=O)N[C@@H](CC(C)C)C(=O)N[C@@H](CCSC)C(=O)N[C@@H](CCCNC(=N)N)C(=O)N1CCC[C@H]1C(=O)N1CCC[C@H]1C(=O)N[C@@H](CC(N)=O)C(=O)N[C@@H](CCSC)C(=O)N[C@H](C(=O)N1CCC[C@H]1C(=O)N[C@@H](C)C(=O)N[C@H](C(=O)N[C@@H](CC(N)=O)C(=O)N[C@@H](C)C(N)=O)C(C)C)[C@@H](C)O
antigen-experienced T cells (item: HA-52 tetramer; tetramer+ CD4 T cells, PBMC, healthy adults, HLA-DRB1*0101; dose not given, CD62L−CD45RA+/− or CD62L+CD45RA−): 16.5%

O=C(O)/C=C/c1ccc(O)cc1
ABTS radical scavenging (62.5 µg/mL): 50.2 ± 1.3%

N=C(N)NCCC[C@@H]1NC(=O)[C@H](CCCCNC(=O)CNC(=O)CNC(=O)CNC(=O)CC[C@H](NC(=O)CCOCCOCCOCCOCCNC(=O)CC[C@H](NC(=O)CN2CCN(CC(=O)O)CCN(CC(=O)O)CCN(CC(=O)O)CC2)C(=O)NCCOCCOCCOCCOCCC(=O)N[C@@H](CCC(=O)NCC(=O)NCC(=O)NCC(=O)NCCCC[C@@H]2NC(=O)[C@@H](Cc3ccccc3)NC(=O)[C@H](CC(=O)O)NC(=O)CNC(=O)[C@H](CCCNC(=N)N)NC2=O)C(=O)NCC(=O)NCC(=O)NCC(=O)NCCCC[C@@H]2NC(=O)[C@@H](Cc3ccccc3)NC(=O)[C@H](CC(=O)O)NC(=O)CNC(=O)[C@H](CCCNC(=N)N)NC2=O)C(=O)NCC(=O)NCC(=O)NCC(=O)NCCCC[C@@H]2NC(=O)[C@@H](Cc3ccccc3)NC(=O)[C@H](CC(=O)O)NC(=O)CNC(=O)[C@H](CCCNC(=N)N)NC2=O)NC(=O)[C@@H](Cc2ccccc2)NC(=O)[C@H](CC(=O)O)NC(=O)CNC1=O [indium-111 labelled]
tumour to tissue ratio (athymic nude mice, female, U-87 MG glioma xenograft, tumour and blood; intravenous, 4 h; reference: tumour over blood): 218 ± 44.6

O=c1c(O)c(-c2cc(O)ccc2O)oc2cc(O)cc(O)c12
ABTS radical scavenging (125 µg/mL): 57.2 ± 1.11%

CN(C)CCN(Cc1ccccc1)C(=O)c1cc(-c2ccc(F)cc2)n2nc(C(C)(C)C)cc2n1
baseline freezing (contextual fear conditioning; Tg6799 and wild-type mice; dose not given, 3 months): no effect

CCc1nnc(-c2c(OC)cc(-c3cnc4cc(-c5cnn(C)c5)ccn34)cc2OC)o1
mRNA level (RT-qPCR, item: Ctsk; male C57BL/6J mouse, cortical bone; oral gavage, dose not given, 3 wk once daily; reference: vehicle): increased

O=C(O)/C=C/c1cc(O)cc(O)c1
ABTS radical scavenging (500 µg/mL): 76.2 ± 2.91%

CC[C@H](C)[C@H](NC(=O)[C@H](Cc1c[nH]c2ccccc12)NC(=O)[C@H](CCCNC(=N)N)NC(=O)[C@H](CCCCN)NC(=O)[C@H](CC(C)C)NC(=O)[C@H](CC(=O)O)NC(=O)[C@H](Cc1ccccc1)NC(=O)[C@H](C)NC(=O)[C@H](Cc1ccc(O)cc1)NC(=O)[C@H](CC(N)=O)NC(=O)[C@H](Cc1ccc(O)cc1)NC(=O)[C@H](CCCNC(=N)N)NC(=O)[C@H](Cc1ccc(O)cc1)NC(=O)[C@H](Cc1ccc(O)cc1)NC(=O)[C@@H](NC(=O)[C@H](CC(C)C)NC(=O)[C@H](C)NC(=O)[C@H](CC(N)=O)NC(=O)[C@H](Cc1ccc(O)cc1)NC(C)=O)[C@@H](C)CC)C(=O)N[C@@H](Cc1ccc(O)cc1)C(=O)N[C@@H](CC(C)C)C(N)=O
antigen-experienced T cells (item: HA-02 tetramer; tetramer+ CD4 T cells, PBMC, healthy adults, HLA-DRB1*0101; dose not given, CD62L−CD45RA+/− or CD62L+CD45RA−): 61.1%

CC(C)[C@H](N)C(=O)N[C@@H](Cc1ccc(O)cc1)C(=O)N[C@@H](CCCCN)C(=O)N[C@H](C(=O)N[C@@H](CCCCN)C(=O)N[C@H](C(=O)N[C@@H](CCCCN)C(=O)N[C@H](C(=O)N[C@@H](CCCCN)C(=O)N[C@H](C(=O)N[C@@H](CCCCN)C(=O)N[C@H](C(=O)N[C@@H](CCCCN)C(=O)N[C@H](C(=O)N[C@@H](CCCCN)C(=O)N[C@H](C(=O)N[C@@H](CCCCN)C(=O)N[C@H](C(=O)O)[C@@H](C)O)C(C)C)[C@@H](C)O)C(C)C)[C@@H](C)O)C(C)C)[C@@H](C)O)C(C)C
Rmax (binding, SPR two-state model; rVλ6Wil fibrils; 300 nM): 89.7 RU

A few entries again:
CC[C@H](C)[C@H](NC(=O)[C@@H](NC(=O)[C@H](CC(=O)O)NC(C)=O)[C@@H](C)O)C(=O)N[C@@H](CCCNC(=N)N)C(=O)N[C@@H](CC(C)C)C(=O)N[C@@H](CC(C)C)C(=O)N[C@@H](Cc1ccccc1)C(=O)N[C@@H](CCC(N)=O)C(=O)N[C@@H](CC(C)C)C(=O)N[C@@H](CCSC)C(=O)N[C@@H](CCCNC(=N)N)C(=O)N1CCC[C@H]1C(=O)N1CCC[C@H]1C(=O)N[C@@H](CC(N)=O)C(=O)N[C@@H](CCSC)C(=O)N[C@H](C(=O)N1CCC[C@H]1C(=O)N[C@@H](C)C(=O)N[C@H](C(=O)N[C@@H](CC(N)=O)C(=O)N[C@@H](C)C(N)=O)C(C)C)[C@@H](C)O
antigen-experienced T cells (item: HA-52 tetramer; tetramer+ CD4 T cells, PBMC, healthy adults, HLA-DRB1*0101; dose not given, CD62L−CD45RA+/− or CD62L+CD45RA−): 16.5%

O=C(O)/C=C/c1ccc(O)cc1
ABTS radical scavenging (62.5 µg/mL): 50.2 ± 1.3%
